Literature values that unrelated publications cite.
Compare with care: the assays were run in different laboratories. Numbers after ± are the reported error. In brackets after ≈: the same amount, converted by molar mass.
Sequence of UniProt Q9Y616 (whole entry, looked up): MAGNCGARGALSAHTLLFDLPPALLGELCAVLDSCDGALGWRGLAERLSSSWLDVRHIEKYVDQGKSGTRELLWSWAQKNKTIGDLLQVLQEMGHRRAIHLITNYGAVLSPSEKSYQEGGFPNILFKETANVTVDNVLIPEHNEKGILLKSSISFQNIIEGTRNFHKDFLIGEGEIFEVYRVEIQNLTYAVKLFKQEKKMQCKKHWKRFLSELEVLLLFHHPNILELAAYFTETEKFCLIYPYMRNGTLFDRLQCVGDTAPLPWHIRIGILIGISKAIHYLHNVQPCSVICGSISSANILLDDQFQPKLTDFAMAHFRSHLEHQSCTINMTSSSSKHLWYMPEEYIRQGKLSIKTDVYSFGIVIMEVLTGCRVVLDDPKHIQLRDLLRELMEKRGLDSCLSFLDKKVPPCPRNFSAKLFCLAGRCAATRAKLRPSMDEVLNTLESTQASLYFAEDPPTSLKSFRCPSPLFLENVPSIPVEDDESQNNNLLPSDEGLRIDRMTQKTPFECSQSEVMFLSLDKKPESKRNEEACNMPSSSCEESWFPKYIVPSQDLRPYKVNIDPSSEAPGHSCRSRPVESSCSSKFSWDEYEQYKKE
Sequence of UniProt Q9UBF8 (whole entry, looked up): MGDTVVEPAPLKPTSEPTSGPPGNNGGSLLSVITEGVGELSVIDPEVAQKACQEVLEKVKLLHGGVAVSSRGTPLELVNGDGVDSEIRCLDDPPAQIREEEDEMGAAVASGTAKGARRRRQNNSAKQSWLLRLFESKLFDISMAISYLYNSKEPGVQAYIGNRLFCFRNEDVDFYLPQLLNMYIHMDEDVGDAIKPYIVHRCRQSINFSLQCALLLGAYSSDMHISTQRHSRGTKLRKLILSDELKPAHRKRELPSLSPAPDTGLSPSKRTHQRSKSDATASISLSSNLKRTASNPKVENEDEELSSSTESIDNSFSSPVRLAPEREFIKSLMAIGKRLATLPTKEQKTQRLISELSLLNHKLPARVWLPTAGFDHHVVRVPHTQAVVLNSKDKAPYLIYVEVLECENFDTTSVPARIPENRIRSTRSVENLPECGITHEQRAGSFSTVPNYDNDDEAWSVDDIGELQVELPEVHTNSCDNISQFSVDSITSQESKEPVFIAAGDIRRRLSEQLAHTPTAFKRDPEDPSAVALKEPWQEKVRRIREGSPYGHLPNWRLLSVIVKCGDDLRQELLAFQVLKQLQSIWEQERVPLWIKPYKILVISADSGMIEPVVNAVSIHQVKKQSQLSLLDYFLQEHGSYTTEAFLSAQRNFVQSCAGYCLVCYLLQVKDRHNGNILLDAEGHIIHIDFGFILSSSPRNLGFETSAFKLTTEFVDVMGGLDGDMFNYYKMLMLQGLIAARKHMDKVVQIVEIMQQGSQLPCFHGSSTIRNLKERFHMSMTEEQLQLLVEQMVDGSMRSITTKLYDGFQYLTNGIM
Sequence of UniProt Q9NR22 (whole entry, looked up): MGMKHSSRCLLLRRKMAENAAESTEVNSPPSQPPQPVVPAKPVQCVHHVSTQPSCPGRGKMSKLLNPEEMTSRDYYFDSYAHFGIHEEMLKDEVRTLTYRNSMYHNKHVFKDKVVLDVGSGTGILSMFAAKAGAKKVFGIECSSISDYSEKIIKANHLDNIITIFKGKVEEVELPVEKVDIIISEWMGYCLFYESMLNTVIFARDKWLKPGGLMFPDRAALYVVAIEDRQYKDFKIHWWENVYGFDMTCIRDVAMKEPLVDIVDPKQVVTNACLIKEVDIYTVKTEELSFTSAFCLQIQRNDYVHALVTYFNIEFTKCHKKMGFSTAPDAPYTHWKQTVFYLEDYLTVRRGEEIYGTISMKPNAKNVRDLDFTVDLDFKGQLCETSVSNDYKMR
Sequence of UniProt Q96BR1 (whole entry, looked up): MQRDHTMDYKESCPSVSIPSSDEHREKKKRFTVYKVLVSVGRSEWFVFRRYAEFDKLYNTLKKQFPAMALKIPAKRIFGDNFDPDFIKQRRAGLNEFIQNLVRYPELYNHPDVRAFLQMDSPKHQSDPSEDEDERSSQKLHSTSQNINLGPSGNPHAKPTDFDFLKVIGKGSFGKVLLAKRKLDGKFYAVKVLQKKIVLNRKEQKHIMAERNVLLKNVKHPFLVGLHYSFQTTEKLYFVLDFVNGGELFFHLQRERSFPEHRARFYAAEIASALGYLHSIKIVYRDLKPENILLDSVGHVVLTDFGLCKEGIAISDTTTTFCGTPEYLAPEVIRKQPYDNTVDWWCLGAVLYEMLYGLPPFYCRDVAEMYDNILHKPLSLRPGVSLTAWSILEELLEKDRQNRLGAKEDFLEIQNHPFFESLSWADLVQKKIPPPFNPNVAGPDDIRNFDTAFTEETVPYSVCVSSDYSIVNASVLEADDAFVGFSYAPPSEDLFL

| Structure (SMILES) | target or system | test | system | setting | scale | measurement | result |
| --- | --- | --- | --- | --- | --- | --- | --- |
| CC(=O)OCC(CCn1cnc2cnc(N)nc21)COC(C)=O |  |  | rat | 4000 mg/kg |  | oral bioavailability | 41% |
| Cc1c(C#N)cccc1[C@@H](C)Nc1nnc(C)c2cnc(N3CCOCC3)cc12 | PC-9 | 3D cell viability |  | 14 d |  | IC50 | 0.141 ± 0.0172 µM |
| CO[C@H]1/C=C/O[C@@]2(C)Oc3c(C)c(O)c4c(O)c(c(/C=N/N5CCN(C)CC5)c(O)c4c3C2=O)NC(=O)/C(C)=C\C=C\[C@H](C)[C@H](O)[C@@H](C)[C@@H](O)[C@@H](C)[C@H](OC(C)=O)[C@@H]1C |  | perpetrator | human | dose not given, together with: atorvastatin as victim drug |  | victim drug AUC decrease | 80% |
| COc1cc2c(Oc3ccc4[nH]c(C)cc4c3F)ccnc2cc1OCC1(N)CC1 |  |  | human | 10 mg/day, two cycles |  | AUC(0-42 days) | 1550 ± 864 ng·h/mL |
| Nc1nc(=O)n([C@@H]2C=C[C@H](CO)O2)cc1F |  |  | dog | dose not given |  | oral bioavailability | 50% |
| C[C@@H]1O[C@@H](OC[C@H]2O[C@@H](Oc3c(-c4ccc(O)c(O)c4)oc4cc(O)cc(O)c4c3=O)[C@H](O)[C@@H](O)[C@@H]2O)[C@H](O)[C@H](O)[C@H]1O |  |  | acidic phosphate buffer |  |  | dissolution | ~4% |
| CNC(C)C1CCC(N)C(OC2C(N)CC(N)C(OC3OCC(C)(O)C(NC)C3O)C2O)O1 (centres unmarked) | Pseudomonas aeruginosa |  | clinical isolate RKI-No_696/15 |  |  | MIC | 2 µg/mL (≈ 4.19 µM) |
| C[C@H]1COCCN1c1nc(-c2cnc(N)cc2C(F)F)nc(N2CCOCC2)n1 | panel of 66 cancer cell lines | cell growth |  | panel mean |  | GI50 | 0.433 µM |
| CCN1[C@@H](C(=O)NC23CCC(C(=O)O)(CC2)CC3)[C@H](c2cccc(Cl)c2F)[C@]2(C(=O)Nc3cc(Cl)ccc32)C12CCCCC2 |  |  | patients with solid tumours or lymphomas | dose not given, grade ≥3, first-in-human trials |  | patients with related neutropenia | 10% |
| CCCC(C)(C)C(=O)O |  | pericardial and yolk oedema | zebrafish embryo | nominal concentration |  | EC10 | 426 µM |
| Cc1cc(Nc2ccc(C(F)(F)F)c(F)c2)n2ncnc2n1 |  |  |  |  |  | logD | 3.8 |
| CCN1CCN(Cc2ccc(Nc3ncc(F)c(-c4cc(F)c5nc(C)n(C(C)C)c5c4)n3)nc2)CC1 |  |  | human | 150 mg single dose, tablet |  | AUC(0-t) | 3960 ng·h/mL |
| Cn1cncc1[C@@](N)(c1ccc(Cl)cc1)c1ccc2c(c1)c(-c1cccc(Cl)c1)cc(=O)n2C |  |  | adult patients, acute leukaemia | dose not given, steady state |  | AUC(0-12 h) | 3520 ng·h/mL |
| Cc1cc2c(s1)Nc1ccccc1N=C2N1CCN(C)CC1 |  |  | healthy male volunteers | together with: carbamazepine 200 mg twice daily for 2 weeks |  | clearance increase | 46% |
| N#CCNC(=O)c1ccc(-c2ccnc(Nc3ccc(N4CCOCC4)cc3)n2)cc1 |  |  | moderate renal impairment | dose not given |  | AUC(0-inf) decrease | 13% |
| COC(=O)N[C@@H](C)CNc1nccc(-c2cn(C(C)C)nc2-c2cc(Cl)cc(NS(C)(=O)=O)c2F)n1 |  |  | human | day 15, multiple doses, autoinduction | relative to: day 1 | decrease in plasma exposure | ~50% |
| O=C(c1cccnc1-c1ccncc1)N1CCC(O)(Cc2ccccc2)CC1 |  |  | human adults | dose not given, open-label period |  | participants with TEAE | 68.8% |
| CC1(C)S[C@@H]2[C@H](NC(=O)[C@H](N)c3ccccc3)C(=O)N2[C@H]1C(=O)O | Pseudomonas aeruginosa |  | clinical isolate RKI-No_48/09 |  |  | MIC | > 16 µg/mL |
| Oc1cc(Cl)ccc1Oc1ccc(Cl)cc1Cl |  |  | human liver | 1 µM |  | sulfonation rate | 10 pmol/min/mg protein |
| C=CC(=O)N1CCC([C@@H]2CCNc3c(C(N)=O)c(-c4ccc(Oc5ccccc5)cc4)nn32)CC1 |  |  | human patients | oral, 40 mg once daily, day 1 |  | AUC(0-8h) | 274 ± 140 ng·h/mL |
| Nc1cccc2c1C(=O)N(C1CCC(=O)NC1=O)C2=O (centres unmarked) |  |  | relapsed refractory multiple myeloma patients | dose not given, all grades |  | renal failure incidence | 1% |
| O=C(O)CN1CCN(CC(=O)O)CCN(CC(=O)O)CCN(CC(=O)O)CC1 |  | pH-potentiometry, item: logK4H | 0.15 M NaClO4 | 25 °C |  | protonation constant (log) | 4.05 |
| C=CC(=O)N1CCC(C(=O)NCC(=O)N2CCN(c3nc(-c4cnc(N)nc4C(F)F)nc(N4CCOCC4)n3)CC2)CC1 | PI4KB (Homo sapiens, UniProt Q9UBF8) | kinase activity |  | 1 µM |  | remaining activity | 100% |
| O=C(O)c1cc(O)c(O)c(O)c1 |  |  | rat | oral, 588 µmol/kg, 15 min |  | blood concentration | 71 µM |
| CCCCCCCCCCCCCCCC(=O)N[C@@H](CCC(=O)NCCCC[C@H](NC(=O)[C@H](C)NC(=O)[C@H](C)NC(=O)[C@H](CCC(N)=O)NC(=O)CNC(=O)[C@H](CCC(=O)O)NC(=O)[C@H](CC(C)C)NC(=O)[C@H](Cc1ccc(O)cc1)NC(=O)[C@H](CO)NC(=O)[C@H](CO)NC(=O)[C@@H](NC(=O)[C@H](CC(=O)O)NC(=O)[C@H](CO)NC(=O)[C@@H](NC(=O)[C@H](Cc1ccccc1)NC(=O)[C@@H](NC(=O)CNC(=O)[C@H](CCC(=O)O)NC(=O)[C@H](C)NC(=O)[C@@H](N)Cc1cnc[nH]1)[C@@H](C)O)[C@@H](C)O)C(C)C)C(=O)N[C@@H](CCC(=O)O)C(=O)N[C@@H](Cc1ccccc1)C(=O)N[C@H](C(=O)N[C@@H](C)C(=O)N[C@@H](Cc1c[nH]c2ccccc12)C(=O)N[C@@H](CC(C)C)C(=O)N[C@H](C(=O)N[C@@H](CCCNC(=N)N)C(=O)NCC(=O)N[C@@H](CCCNC(=N)N)C(=O)NCC(=O)O)C(C)C)[C@@H](C)CC)C(=O)O |  |  | overweight or obese adults | 3.0 mg |  | benign colorectal neoplasm incidence | 0.5% |
| CC(C)=CCC/C(C)=C/CC/C(C)=C/CC[C@@](C)(O)CCC1=C(C)C(=O)C(C)=C(C)C1=O |  |  | human | oral |  | effective half-life | ~9 h |
| O=C(/C=C/c1cccc(S(=O)(=O)Nc2ccccc2)c1)NO | HepG2 | mitochondrial membrane potential |  | concentration not given, Tox21 |  | activity outcome | inactive |

| Structure (SMILES) | target or system | test | system | setting | scale | measurement | result |
| --- | --- | --- | --- | --- | --- | --- | --- |
| CCO[C@H]1CCN(Cc2c(OC)cc(C)c3[nH]ccc23)[C@H](c2ccc(C(=O)O)cc2)C1 |  |  | healthy participants | oral, 1200 mg, single dose |  | tolerability | not toxic |
| Nc1nnc(-c2cccc(Cl)c2Cl)c(N)n1 |  |  | mouse | i.p., 6 Hz seizure test, 32 mA |  | protective index | 0.5 |
| C#C[C@]1(O)CC[C@H]2[C@@H]3CCc4cc(O)ccc4[C@H]3CC[C@@]21C |  |  | HCl fasted stomach medium | 0.083 h |  | cumulative release | 12% |
| Cc1nccn1CC1CCc2c(c3ccccc3n2C)C1=O (centres unmarked) |  |  | rat | 4 mg/kg, without tariquidar |  | clearance | 50 ± 13.3 mL/min/kg |
| COc1ccccc1OCC(O)CN1CCN(CC(=O)Nc2c(C)cccc2C)CC1 (centres unmarked) |  |  | human adults | dose not given |  | bioavailability | 35 to 50% |
| CCN(c1cc(-c2ccc(CN3CCOCC3)cc2)cc(C(=O)NCc2c(C)cc(C)[nH]c2=O)c1C)C1CCOCC1 | PRMT8 (Homo sapiens, UniProt Q9NR22) | enzyme activity, inhibitor |  | 1 µM |  | inhibition | 7 ± 3% |
| CO[C@@H](C)Cn1c(=O)n(C)c2cnc3ccc(-c4cncc(C(C)(C)O)c4)cc3c21 |  | item: grade ≥3 pruritus | cancer patients | dose not given, monotherapy |  | patients with related adverse event | 2.1% |
| Nc1ccn([C@@H]2CS[C@H](CO)O2)c(=O)n1 |  |  | rat | 5 mg/kg |  | oral bioavailability | 80% |
| CC(C)n1c(Nc2cccnc2)nc2cnc(Nc3ccc(N4CCN(C)CC4)cc3)nc21 |  |  | human relapsed or refractory AML | oral, 20 to 310 mg/day, monotherapy |  | tolerability | not toxic |
| O=C(COc1ccc(N2C(=O)[C@@H]3[C@@H]4C=C[C@@H]([C@H]5C[C@@H]45)[C@@H]3C2=O)cc1)c1cc(Cl)cc(Cl)c1 |  |  | mouse, brain | oral, 20 mg/kg |  | AUC(0-last) | 1.77e+06 ng·min/g |
| Cn1ncnc1[C@H]1c2n[nH]c(=O)c3cc(F)cc(c23)N[C@@H]1c1ccc(F)cc1 |  |  | human, severe renal impairment | dose not given, monotherapy | relative to: normal renal function | AUC(0-24) increase | ~96.4% |
| Nc1ccn([C@@H]2O[C@H](CO)[C@@H](O)C2(F)F)c(=O)n1 |  |  | pancreatic cancer patients | dose not given |  | patients with dose delay | 12.5% |
| Nc1cc(C(F)(F)F)c(-c2nc(N3CCOCC3)nc(N3CCOCC3)n2)cn1 | IRAK3 (Homo sapiens, UniProt Q9Y616) | enzyme activity |  | 10 µM | relative to: untreated | remaining activity | 68% |
| C[C@]1(c2nc3c(C(N)=O)cccc3[nH]2)CCCN1 |  |  |  |  |  | pKa2 | 12.8 |
| CN(C)C(=O)c1cc2cnc(Nc3ccc(N4CCNCC4)cn3)nc2n1C1CCCC1 |  | item: cough | advanced solid tumour or lymphoma patients | dose not given, continuous dosing | relative to: patients | adverse event incidence | 21.1% |
| COc1c(Cl)cccc1Nc1c(-c2ccncc2OC[C@@H]2COCCO2)[nH]c2c1C(=O)NCC2 |  |  | patients, NSCLC, HER2-mutant, previously treated | dose not given, any grade |  | treatment-related AEs incidence | 96% |
| N#Cc1cc(NC(=O)[C@H]2c3ccccc3C(=O)N(CC(F)(F)F)[C@@H]2c2cccnc2)ccc1F |  |  | dog, plasma | oral, 30 mg/kg |  | Cmax | > 20 µM |
| COc1cc2nccc(Oc3ccc(NC(=O)C4(C(=O)Nc5ccc(F)cc5)CC4)cc3)c2cc1OC | HepG2 | mitochondrial membrane potential |  | concentration not given, Tox21 |  | activity outcome | inactive |
| Cc1cc(-c2nccc3c2ccn3CC(=O)Nc2ccc(-c3cnccn3)cn2)ccn1 |  |  | dog | oral, up to 200 mg/kg single dose |  | cardiovascular parameters and body temperature | no effect |
| Cc1cc(NC(=O)c2cccc(NC(=O)/C=C/CN(C)C)c2)ccc1Nc1nccc(-c2cccnc2)n1 | SGK3 (Homo sapiens, UniProt Q96BR1) | enzyme activity, inhibitor |  | 1 µM | relative to: vehicle | remaining activity | 48% |
| C[C@]12CC[C@H](O)CC1=CC[C@@H]1[C@@H]2CC[C@]2(C)C(n3cnc4ccccc43)=CC[C@@H]12 |  |  | male CD-1 mice | oral, dose not given |  | half-life | 1.26 h |
| CCCC(CCC)C(=O)O |  | scoliosis or lordosis | zebrafish embryo | nominal concentration |  | EC10 | 59 µM |
| Cn1c(Cn2ccc(C(F)(F)F)c(Oc3cc(Cl)cc(C#N)c3)c2=O)n[nH]c1=O |  |  | human subjects | dose not given, up to 48 weeks |  | Cough incidence | 5% |
| N#C[C@@]1(c2ccc3c(N)ncnn23)O[C@H](CO)[C@@H](O)[C@H]1O |  |  | dog | 5 mg/kg oral, 2 mg/kg intravenous, unadjusted NCATS data |  | oral bioavailability | 93% |
| CC(C)(c1ccc(O)cc1)c1ccc(O)cc1 |  |  | rat | oral, 0.1 mg/kg |  | half-life | 3 h |
| CNC(=O)c1cc(Cl)c(OC(C)(C)C(=O)O)cc1OC[C@@H](O)CN1CCC2(CC1)Cc1cc(Cl)ccc1O2 |  |  | human, plasma | inhaled |  | Tlast | 72 h |

For quick reference, copied from above:
| Structure (SMILES) | target or system | test | system | setting | scale | measurement | result |
| --- | --- | --- | --- | --- | --- | --- | --- |
| Cn1ncnc1[C@H]1c2n[nH]c(=O)c3cc(F)cc(c23)N[C@@H]1c1ccc(F)cc1 |  |  | human, severe renal impairment | dose not given, monotherapy | relative to: normal renal function | AUC(0-24) increase | ~96.4% |
| Nc1ccn([C@@H]2O[C@H](CO)[C@@H](O)C2(F)F)c(=O)n1 |  |  | pancreatic cancer patients | dose not given |  | patients with dose delay | 12.5% |
| Nc1cc(C(F)(F)F)c(-c2nc(N3CCOCC3)nc(N3CCOCC3)n2)cn1 | IRAK3 (Homo sapiens, UniProt Q9Y616) | enzyme activity |  | 10 µM | relative to: untreated | remaining activity | 68% |
| C[C@]1(c2nc3c(C(N)=O)cccc3[nH]2)CCCN1 |  |  |  |  |  | pKa2 | 12.8 |
| CN(C)C(=O)c1cc2cnc(Nc3ccc(N4CCNCC4)cn3)nc2n1C1CCCC1 |  | item: cough | advanced solid tumour or lymphoma patients | dose not given, continuous dosing | relative to: patients | adverse event incidence | 21.1% |
| COc1c(Cl)cccc1Nc1c(-c2ccncc2OC[C@@H]2COCCO2)[nH]c2c1C(=O)NCC2 |  |  | patients, NSCLC, HER2-mutant, previously treated | dose not given, any grade |  | treatment-related AEs incidence | 96% |
| N#Cc1cc(NC(=O)[C@H]2c3ccccc3C(=O)N(CC(F)(F)F)[C@@H]2c2cccnc2)ccc1F |  |  | dog, plasma | oral, 30 mg/kg |  | Cmax | > 20 µM |
